Measured values from different studies.
Parts stem from different laboratories: compare values within a part only.

Block 1
Target: Interferon regulatory factor 5, full length, phosphomimetic (IRF5, Homo sapiens, UniProt Q13568-2, residues 1-514, K96S/S451D/S453D/S456D/S462D)
Technique: protein-binding microarray
Molecule type: double-stranded DNA, one strand shown
Sample: in vitro
Tested at: 250 nM
Notes: 60-bp whole probe
Together with: salmon DNA 0.4 mg/ml
Reference: random background probes
Reading: higher = stronger binding
Constant ends, left off below: GCCTAGCAC … GTCTTGATTCGCTTGACGCTGCTG
Sequence	log fluorescence [z-score]
TTAGGACTGCTGCTGCTTTAGTGCTAG	-0.423
TTAGGAATCGGTATCGGTTAGTGCTAG	6.61
TACGGTTTCGACTATCGGGACGTGCTA	7.26
TTAGGTATCCTCTTCCTTTAGTGCTAG	0.163
TTAGATTTCAGACAGGATTAGTGCTAG	0.49
TTAGGACTGGGACTGGGGTAGTGCTAG	-0.474
TCAAAGATTTTTATCAAACTGTGCTAG	0.262
GTCGGTTTCGACTATCGGGACGTGCTA	7.98
TCACTTTACACACATCATACTGTGCTA	1.12
TTAGGTCTCAGTTTCGATTAGTGCTAG	8.9
TTAGGTATTGGGACTGGGTTAGTGCTA	-0.227
TCATTTCTGGTTCCCATACTGTGCTAG	2.09
GATGGTTTCCTACTGCTGACGTGCTAG	0.477
GATGATTTCGGGTATCGAGACGTGCTA	5.72
TTAGGGATCGGTTTCGGTTAGTGCTAG	8.8
TTAGGTCTCGGTTACGGTTAGTGCTAG	1.01
ATAGGACTGGACTATCGGTTAGTGCTA	6.13
GCCGGTATCGGACTGGGGACGTGCTAG	1.24
TTAGGACCGGGGACTGGGTTAGTGCTA	-0.876

Block 2
Target: RNA binding protein fox-1 homolog 2, RRM domain, GST-SBP tag (RBFOX2, Homo sapiens, UniProt O43251-10, residues 100-194)
Technique: RNA Bind-n-Seq
Molecule type: RNA
Sample: in vitro
Tested at: 365 nM
Notes: natural RNA segment, single round, ends assumed
Reference: no-protein control
Reading: higher = stronger binding
Constant ends, left off below: GGGAGUUCUACAGUCCGACGAUC … UGGAAUUCUCGGGUGCCAA
Target sequence (chain): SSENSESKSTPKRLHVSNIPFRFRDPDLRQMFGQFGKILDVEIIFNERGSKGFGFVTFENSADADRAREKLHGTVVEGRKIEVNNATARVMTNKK
Sequence	RBNS enrichment (R)
AUCUGCCAAGAGAGAUGUAUGUGUCACUGCAUGGCUUCUGAAAGCAGGAUGAAUUUUCUGCAGCUGUUUCAAAGUUGGGGUCUGUUCUUGAAUCCUCUAUUAAUUACUGU	0.874
ACCCAUCAUACUACUAUACUUCUGGGUUGAACAGAAUUAUUUAUGCAGAAUAAUUCAAUUGAAUAUCCAUCACUUAAAUACAGUGACAGGACAGCAACUUCAGGGAUCUG	0.315
GUUCUUCAUUCUGUGCUCAGGAUUGAAAUGCUGCGUAGACGUUGUGUUGUUAGUGCUGGGCACGGAUUCUGGGACGGUGAGCUGUUGAUUUCCUAACAGAAAGAUAUUUU	0.239
UGUUUCAUUCCCGUGCUUCUGUUCUGAAGUCCUGGAAUACAGUUUUCAGUGUAAUUAAUUCAACUGCACUUAACACUAAUGUCCGUGUUGGUAUAGAAAUGUCUAAAUCC	0.237
AAAAGGAAGACGAAGAGUUUGGAGCACCUCUCCCUAGCAUCCUCUCAGCUGGAGAGGCAGCAUUGGAUCCCCAUGCCGCACACGGGGAUGGGAUGGGAGCAGAAGCCCAU	0.288
CAAGCCCUCCUCUGUGUCCAGUAAAUAAUGCUUAUCCCAAGGGGCCCGUCUCCCAGGGCAUUUCCCCCUCCCGUGCACAGCCAUUGGUGGCAAAUCCUUCUGCCAUCAGC	0.506
UUGUGACCGUUAGUCUCUAAGCUUUACCAGGAGCAGCCUGGGUUCAGCCAGUCAGUGACUGGUGGGUUUGAAUCUGCACUUAUCCCCACCACCUGGGGACCCCCUUGUUG	0.256
GAGGAAGACCUGAUGGGGUCUCCUAUUCCAGGGAAUAAGCCAAAUUAACACUAAAAACGGAUCAAAGCUCCCACGCCAGUCCACUAGGGCCCCAGUAGUUGACAGCCUUG	0.742

Block 3
Target: Centromere-binding protein 1, full length, His-tagged (CBF1, Saccharomyces cerevisiae, UniProt P17106, residues 1-351)
Sequence of UniProt P17106 (whole entry, looked up): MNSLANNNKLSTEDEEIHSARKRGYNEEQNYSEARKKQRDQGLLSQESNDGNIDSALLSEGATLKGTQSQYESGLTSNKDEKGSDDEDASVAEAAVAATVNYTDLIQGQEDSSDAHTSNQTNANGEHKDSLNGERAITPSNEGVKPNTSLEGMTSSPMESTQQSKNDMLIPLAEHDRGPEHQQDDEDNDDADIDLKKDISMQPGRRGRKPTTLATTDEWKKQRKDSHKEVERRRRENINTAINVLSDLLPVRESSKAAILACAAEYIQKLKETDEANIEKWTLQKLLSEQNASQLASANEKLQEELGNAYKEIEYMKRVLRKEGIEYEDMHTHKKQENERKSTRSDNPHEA
Technique: competition protein-binding microarray
Molecule type: double-stranded DNA, one strand shown
Sample: in vitro
Tested at: 2 µM
Notes: whole 60-bp probe, lowest competitor level
Together with: Pho4 competitor, 0.05 µM
Reading: higher = stronger binding
Constant ends, left off below: … GTCTTGATTCGCTTGACGCTGCTG
Sequence	fluorescence intensity [a.u.]
TGAGTTCTCCTTCATTGCGTGATGGATCATCAAGTG	76.4
CATACCCAACCTTGTCGCGTGGGTGAAGATATTTGT	98.1
TGTCAAGCCAGACTGGACGTGTGGATGGGGGGCAAA	101
GCCAAATCTGCCAGCTTCGTGATGGACATCAACAGA	70.5
TTGAGTGTCGTCTGGCACGTGGAGGTCCCTCCTCAG	557
TGCCCGCCATCGAGTCACATGTTCCTACAGATGAAG	1460
CTAACGAAGGTTTGGGGAGTGGGTGACAAGCCAAGT	59.9
CTTCTGTAAATTTGGTCTGTGGGTGGACGCGCCCCG	87.6
CTAACGAAGGTTTGCTTAGTGGGTGACAAGCCAAGT	73.9
CGTCCTAGTGATTGTGCTGTGGGTGCCATGAGGAAG	91.7
AAAGCGGTAATTTGGAACGTGGGTGCAGATATCTAT	98.6
CTAACGAAGGTTTGTGCTGTGGGTGACAAGCCAAGT	71.3
GTCTTGTCTCATTGGAATGTGGGTGTCCCCACTTCA	73.5
CTAACGAAGGTTTTTCACGTGCCCTACAAGCCAAGT	1190
AATCTCTGGCTTCACCACGTTTTCCAGCTTCAAAGA	92
CGTTCATTATCGCCCAATGTGACGGACAATCTCGGC	96.9
TCGTTTAGAGTTATCATCGTGCCAGGACCCAGTGAT	92.1
TGTGGGGGTAACCATCACGGCGTCGCACAACCCATA	62.9
CGTCCTAGTGATTGTACTGTGGGTGCCATGAGGAAG	108

Block 4
Target: Sal-like protein 4, full length isoform B (SALL4, Homo sapiens, UniProt Q9UJQ4-2, residues 1-616)
Technique: universal PBM
Molecule type: double-stranded DNA, one strand shown
Sample: in vitro
Tested at: not given
Notes: 8-mer, flanks averaged, mean of replicates
Reading: higher = stronger binding
Target sequence (chain): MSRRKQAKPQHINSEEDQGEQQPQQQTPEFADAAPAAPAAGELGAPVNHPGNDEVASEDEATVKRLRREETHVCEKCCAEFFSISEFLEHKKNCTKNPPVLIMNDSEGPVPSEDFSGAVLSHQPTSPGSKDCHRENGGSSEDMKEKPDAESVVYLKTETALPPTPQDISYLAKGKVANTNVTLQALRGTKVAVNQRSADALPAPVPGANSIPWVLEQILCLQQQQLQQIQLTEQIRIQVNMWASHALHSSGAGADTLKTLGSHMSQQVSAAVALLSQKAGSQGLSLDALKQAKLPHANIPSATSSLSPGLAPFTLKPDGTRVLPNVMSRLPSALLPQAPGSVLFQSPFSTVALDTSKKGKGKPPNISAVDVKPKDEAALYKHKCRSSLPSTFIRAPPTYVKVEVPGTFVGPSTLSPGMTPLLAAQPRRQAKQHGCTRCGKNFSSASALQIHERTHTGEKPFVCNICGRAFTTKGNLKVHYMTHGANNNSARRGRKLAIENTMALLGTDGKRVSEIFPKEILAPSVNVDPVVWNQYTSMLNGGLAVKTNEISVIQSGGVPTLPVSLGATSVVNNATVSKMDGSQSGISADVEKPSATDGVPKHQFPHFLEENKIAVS
Sequence	E-score
CCGATAAG	0.00726
CCACTTGA	0.0451
AGGGGTAC	-0.191
TGAGATAA	0.239
CTAGCAAC	0.108
ATGGGATC	0.147
CTGTGTAA	0.13
AGCAACTG	-0.0955
CCGGTAAG	-0.228
ATAGAAAC	0.262
TCGGTAAA	0.114
AATTGGAC	0.117
CCAGAAAC	-0.0943
GAAGTAGC	-0.0535
CCAAACTC	-0.0465
ATAACACC	0.254
AGGATACA	0.0761
CCGTTCCA	0.0388
CTGCCATC	-0.097
AATTTCCT	0.189
CCCGGTCG	-0.418
ACAAAAGC	0.149
ACAGTTCC	-0.0511
AACAGGCT	-0.0134
ACATGTAC	0.0877

A few entries again (block 1):
Sequence	log fluorescence [z-score]
TTAGGTCTCGGTTACGGTTAGTGCTAG	1.01
TTAGGTATTGGGACTGGGTTAGTGCTA	-0.227
GTCGGTTTCGACTATCGGGACGTGCTA	7.98
TCACTTTACACACATCATACTGTGCTA	1.12
GCCGGTATCGGACTGGGGACGTGCTAG	1.24
TCAAAGATTTTTATCAAACTGTGCTAG	0.262
TTAGATTTCAGACAGGATTAGTGCTAG	0.49
